Measured values collected from several papers.
Protocols differ between the studies behind these lines. ± marks the error that the study gave.

Structure (SMILES)	tested on	assay	system	conditions	scale	endpoint	result
Cc1c(C(=O)O)ccc2c3n(nc12)[C@@H]1[C@H](C3)N(CC2CC2)[C@@]2(C(=O)Nc3cc(Cl)ccc32)[C@H]1c1cccc(Cl)c1F		phase Ia trial, refers to: Fatigue	cancer patients	oral, dose not given		adverse event incidence	52%
Cc1ccc(Sc2ccccc2N2CCNCC2)c(C)c1		refers to: ureteric calculus	healthy adult men	oral, 5 mg daily, 12 days		participants with TEAE	0%
Cc1ccc([C@@H]2O[C@H](CO)[C@@H](O)[C@H](O)[C@H]2O)cc1Cc1ccc(-c2ccc(F)cc2)s1			Japanese type 2 diabetes patients	25 mg, day 18, 24 h urine collection	baseline: baseline	urinary sodium excretion change	-41.5 mEq
CCc1cc(C(=O)NC)c2nccc(N3CCc4c(cc(Cn5ccnc5)cc4-c4cn(C)nc4C(F)(F)F)C3=O)c2c1		refers to: HGB	Sprague Dawley rat	oral, 100 mg/kg once daily, 7 days	baseline: vehicle	change in clinical chemistry or haematology parameter	0%
CC1(C)CCC(CN2CCN(c3ccc(C(=O)NS(=O)(=O)c4ccc(NCC5CCOCC5)c([N+](=O)[O-])c4)c(Oc4cnc5[nH]ccc5c4)c3)CC2)=C(c2ccc(Cl)cc2)C1		UPLC-MS/MS	responders, good/moderate prognosis	oral, dose not given, 6 h, normalised to dose per body weight		dose-normalised C6 (C6/D)	0.847 ± 0.896 µg/mL per mg/kg
N#Cc1ccc(-c2cnc3ccc(-c4ccc(C(=O)N5CCOCC5)cc4)cn23)cc1		refers to: QRS interval	healthy volunteers	oral, 20 mg, fasted, time-averaged		placebo-corrected change from baseline	-1 ms
CC(C(=O)NCC(=O)NCC(CNC(=O)CNC(=O)C(C)N1CCN(CC(=O)[O-])CCN(CC(=O)[O-])CCN(CC(=O)[O-])CC1)(CNC(=O)CNC(=O)C(C)N1CCN(CC(=O)[O-])CCN(CC(=O)[O-])CCN(CC(=O)[O-])CC1)CNC(=O)CNC(=O)C(C)N1CCN(CC(=O)[O-])CCN(CC(=O)[O-])CCN(CC(=O)[O-])CC1)N1CCN(CC(=O)[O-])CCN(CC(=O)[O-])CCN(CC(=O)[O-])CC1.[Gd+3].[Gd+3].[Gd+3].[Gd+3] (stereo not shown)			cynomolgus monkey, kidney medulla	dose not given, day 58		lanthanide concentration	3.6 ± 1.2 nmol/g
CNCc1ccc(-c2[nH]c3cc(F)cc4c3c2CCNC4=O)cc1			human patients	oral, 600 mg twice daily, grade 5		neutropenia incidence	0%
CCN1/C(=C/C(C)=O)Sc2ccc(F)cc21			cynomolgus monkey	oral, 100 mg/kg, 2 h post-dose		PR interval	90 ± 3 ms
C=C1C[C@@]23C=CC(=O)[C@@](C)(CCC(=O)Nc4c(O)ccc(C(=O)O)c4O)[C@@H]2C[C@@H]1CC3			C57BL/6 mice, male, plasma	intravenous, 3 mg/kg		clearance	23 mL/min/kg
Nc1ncn([C@H]2C[C@H](O)[C@@H](CO)O2)c(=O)n1	THP-1	pyroptotic LDH release		2 µM, 40 min, added: LPS then nigericin		inhibition	-12.6%
CNC(=O)c1ccc(-c2cnc3ncc(Cc4ccc5ncccc5c4)n3n2)cc1F			healthy human subjects	oral, dose not given, all grades, added: rifampicin	baseline: subjects	treatment-related diarrhoea incidence	11.5%
CCc1nc(C(N)=O)c(Nc2ccc(N3CCC(N4CCN(C)CC4)CC3)c(OC)c2)nc1NC1CCOCC1			Japanese patients, plasma	oral, 120 mg, cycle 0 day -2, single dose, mean		AUC(0-24)	3340 ng·h/mL
CCCCOc1ccc([C@H]2CC[C@H](CCC)CC2)c(F)c1F			human mother-newborn pairs, cord serum			median concentration	6.23 ng/mL
COc1cccc(OC)c1-c1cc(C(=O)NC2(C(=O)O)C3CC4CC(C3)CC2C4)nn1-c1ccc(C(=O)N(C)CCCN(C)CCCN(C)C(=O)CN2CCN(CC(=O)[O-])CCN(CC(=O)[O-])CCN(CC(=O)[O-])CC2)cc1C(C)C.[177Lu+3] (stereo not shown)			mouse, HT-29 xenograft, muscle	24 h post injection		tissue uptake	0.06 %ID/g
C[C@@H](N)C1CCN(S(=O)(=O)c2cccc3cnccc23)CC1			healthy volunteers	250 mg, fasted		participants with serious TEAEs	0%
CC(C)n1c(Nc2cccnc2)nc2cnc(Nc3ccc(N4CCN(C)CC4)cc3)nc21			human, plasma	dose not given, added: rifampin	baseline: without rifampin	change in Cmax	no effect
CC[C@H](C)[C@H](NC(=O)[C@H](CO)NC(=O)[C@H](CCCNC(=N)N)NC(C)=O)C(=O)N[C@H]1CSSC[C@@H](C(=O)N[C@H](C(N)=O)[C@@H](C)O)NC(=O)[C@H](CCCNC(=N)N)NC(=O)[C@H](Cc2c[nH]cn2)NC(=O)[C@H](C)NC(=O)CNC(=O)[C@H](Cc2c[nH]c3ccccc23)NC(=O)[C@H](CC(=O)O)NC(=O)[C@H](CCC(N)=O)NC(=O)[C@H](Cc2ccc3ccccc3c2)NC(=O)[C@H](C(C)C)NC1=O		RP-HPLC, C18	28% acetonitrile isocratic	pH 7.4		retention factor	4.251 ± 0.006
CC(=O)c1ccccc1O	THP-1	pyroptotic LDH release		2 µM, 40 min, added: LPS then nigericin		inhibition	2.11%

Some of these lines once more:
Structure (SMILES)	tested on	assay	system	conditions	scale	endpoint	result
C=C1C[C@@]23C=CC(=O)[C@@](C)(CCC(=O)Nc4c(O)ccc(C(=O)O)c4O)[C@@H]2C[C@@H]1CC3			C57BL/6 mice, male, plasma	intravenous, 3 mg/kg		clearance	23 mL/min/kg
